Measurements pooled from the literature.
A part holds a random share of what one study measured.

Set 1 — technique: RNA Bind-n-Seq; form: RNA; sample: in vitro; tested at: 200 nM; notes: whole 134-nt RNA, ends assumed; with: 150 mM KCl; relative to: input library; reading: higher = stronger binding
Target: Ras GTPase-activating protein-binding protein 1, full length (G3BP1, Homo sapiens, UniProt Q13283)
UniProt Q13283, sequence (whole entry, looked up): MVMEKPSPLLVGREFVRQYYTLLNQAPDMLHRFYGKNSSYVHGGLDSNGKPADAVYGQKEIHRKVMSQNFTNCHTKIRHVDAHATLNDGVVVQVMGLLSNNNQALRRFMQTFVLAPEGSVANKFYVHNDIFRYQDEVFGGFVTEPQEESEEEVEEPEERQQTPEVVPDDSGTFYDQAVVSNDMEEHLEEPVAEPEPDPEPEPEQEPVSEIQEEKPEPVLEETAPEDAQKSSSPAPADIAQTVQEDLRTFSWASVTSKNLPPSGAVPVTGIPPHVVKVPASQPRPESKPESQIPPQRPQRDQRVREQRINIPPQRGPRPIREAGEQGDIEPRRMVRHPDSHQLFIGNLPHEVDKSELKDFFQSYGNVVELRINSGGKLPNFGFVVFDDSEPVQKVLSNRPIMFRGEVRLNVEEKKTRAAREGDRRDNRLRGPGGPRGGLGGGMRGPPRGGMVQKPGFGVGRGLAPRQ
Shared flanks, not repeated: GGGAGUUCUACAGUCCGACGAUC … UGGAAUUCUCGGGUGUCAAGG
For `CUGUGCUACACAUCGUAUGUACCGAAUCGGGAAAAAAAGGGUUUUUUUGGGAAAAAAAGGGAAAGUAUUAUGUUACGCCGUUCGGAUCUG`, the log2 enrichment was -1.31.
The log2 enrichment of `CUGUGCUACACAUCGUAUGUACCGAAUCGGGGAAAAAGGGGAAAAAAAGGGGAAAAAGGGGAAAGUAUUAUGUUACGCCGUUCGGAUCUG` is reported as -0.207.
With `GCAGGAAGUAAAAACAAAUGGAAAUGCUUCGGAUAGUGGCAGGGGUGGGGGUUGCUAAGAAAAGGGUGGGAUGGGAGUGGGUAAAGAGUU` the log2 enrichment was 0.493.
The log2 enrichment of `AAGUCCUGUGCUACACAUCGUAUGUACCGAAUCGGGAAAAGGAAAAGGGAAAAGGGAAAGUAUUAUGUUACGCCGUUCGGAUCUGCACUU` is reported as -0.796.
The log2 enrichment of `UGGCCCUGGUGGCAUGCGGGGAGGAAGAGGUGGCCUCAUGGAUCGUGGUGGUCCCGGUGGAAUGUUCAGAGGUGGCCGUGGCGGAGACAG` is reported as 0.358.
`AGUCCUGUGCUACACAUCGUAUGUACCGAAUCAAAUUUAAAUUUUUUUAAAUUUAAAAAAGUAUUAUGUUACGCCGUUCGGAUCUGCACU` gave a log2 enrichment of -1.97.

Set 2 — technique: RNA Bind-n-Seq; form: RNA; sample: in vitro; tested at: 365 nM; relative to: no-protein control; reading: higher = stronger binding
Target: RNA binding protein fox-1 homolog 2, RRM domain, GST-SBP tag (RBFOX2, Homo sapiens, UniProt O43251-10, residues 100-194)
Notes: natural RNA segment, single round, ends assumed
Shared flanks, not repeated: GGGAGUUCUACAGUCCGACGAUC … UGGAAUUCUCGGGUGCCAA
Target sequence (chain): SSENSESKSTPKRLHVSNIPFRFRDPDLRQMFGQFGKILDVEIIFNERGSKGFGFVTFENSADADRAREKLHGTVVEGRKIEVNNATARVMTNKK
Under “RBNS enrichment (R)”, `CCAGCACUGUGUUCUGCGUUUGGUCUCAUACCUGCGUCUACCUUCCAUCUGUGUCCAGCGGCCCCGGCUCCAGCCCAGCCAGCACUCUGCAGGGUCACACGCACCGUGUC` is recorded as 0.507.
`CCCUGACCUCCAGAAAGAAGCCAUGCAGUAUAAACUCCUUGUGGUGAACAAGUCUGUUCAUGGCAAACGUGGCUCGAGCCCACCAGACACCAGCGCAGAGCGGGGGCAGC` — result for “RBNS enrichment (R)”: 0.328.
`AAGCCUUUCUACUUGUGGGUGCAAUAGAUUCCUUCUUUUUCCUUUGCAGUGUCAUCUUGAUUGUAUAUUGAAAAUACUGUGUAAUGAUGAAAUCAUAUUAUAAAUAUUUC` — result for “RBNS enrichment (R)”: 0.572.
`GGAGAGAUGUGUCACUCAAUCCUGUGGCUUUGGUGAGAGAGUGUGCAGAGAGCAAUGAUAGCAAAUAACGUACGAAUGUUUUACAUCAAAGGACAUCCACAUCAGUUGGA` — result for “RBNS enrichment (R)”: 0.687.
`UGUUGGUGGCUCUUAUUUCUGAAUUCAAAGCUUGUGAAAAAAAAUAAAGAAAUUAAAUUGCCCGUUGAUCUGAGUGGGUGUUUUCACUUGGGUUUAUCAACUGCCUGGUC`: “RBNS enrichment (R)” 1.24.
`AAUGGCUGCUGUAUAUUUACAAUAUGGAAUUCUGAGUUAAGUACCGCCCUUCAUACUGGGAACAGAAUGUAUGUAACCCAUGUCAAUCAGAUGCAGGUGGUACCCACACG`: “RBNS enrichment (R)” 1.73.
For `UUAAUUCAGCCUGGCCUCGAAACACUGUCCUGAGCACCCGUCAACUCUGAGAGGAAGUGUGGAGAGUCUCCAUCCAACUCUGCUCCUACUGAGUAAAGUCCCCUUCCCUC`, “RBNS enrichment (R)” read 0.19.

Set 3 — technique: universal PBM; form: double-stranded DNA, one strand shown; sample: in vitro; tested at: 600 nM; reading: higher = stronger binding
Target: Sal-like protein 4, full length isoform A (SALL4, Homo sapiens, UniProt Q9UJQ4, residues 1-1053)
UniProt Q9UJQ4, sequence (whole entry, looked up): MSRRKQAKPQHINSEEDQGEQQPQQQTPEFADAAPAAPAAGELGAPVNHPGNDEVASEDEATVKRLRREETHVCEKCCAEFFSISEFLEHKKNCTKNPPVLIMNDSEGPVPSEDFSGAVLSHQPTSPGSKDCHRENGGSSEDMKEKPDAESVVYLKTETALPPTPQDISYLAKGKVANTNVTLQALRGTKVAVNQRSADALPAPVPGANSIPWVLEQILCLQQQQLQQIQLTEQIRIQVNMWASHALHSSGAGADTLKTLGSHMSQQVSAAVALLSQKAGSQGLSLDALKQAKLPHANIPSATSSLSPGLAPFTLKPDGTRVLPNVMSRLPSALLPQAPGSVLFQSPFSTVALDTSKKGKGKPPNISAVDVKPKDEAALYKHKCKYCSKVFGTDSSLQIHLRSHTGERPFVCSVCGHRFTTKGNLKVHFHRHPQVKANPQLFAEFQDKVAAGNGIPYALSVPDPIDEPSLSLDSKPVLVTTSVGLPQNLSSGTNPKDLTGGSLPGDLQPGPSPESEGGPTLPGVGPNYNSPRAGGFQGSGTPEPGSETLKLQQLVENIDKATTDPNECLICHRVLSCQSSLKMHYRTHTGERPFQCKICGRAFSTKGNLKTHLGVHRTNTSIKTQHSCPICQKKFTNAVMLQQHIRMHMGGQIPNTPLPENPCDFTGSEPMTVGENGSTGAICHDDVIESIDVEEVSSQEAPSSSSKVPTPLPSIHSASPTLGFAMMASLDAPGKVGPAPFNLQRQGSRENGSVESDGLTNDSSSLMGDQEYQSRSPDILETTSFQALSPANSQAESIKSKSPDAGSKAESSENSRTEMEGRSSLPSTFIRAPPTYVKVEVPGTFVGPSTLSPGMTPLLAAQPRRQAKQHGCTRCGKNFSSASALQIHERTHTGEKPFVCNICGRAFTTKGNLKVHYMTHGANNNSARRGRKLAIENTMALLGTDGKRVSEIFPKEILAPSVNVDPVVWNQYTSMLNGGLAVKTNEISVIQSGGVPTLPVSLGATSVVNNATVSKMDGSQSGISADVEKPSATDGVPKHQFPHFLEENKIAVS
Notes: 8-mer, flanks averaged, mean of replicates
With `TACTCAAA` the E-score was 0.2.
For `CTGCGGGA`, the E-score was -0.315.
The E-score of `CGTAGCGC` is reported as -0.211.
The E-score of `AAATGAGA` is reported as 0.165.
`AAGCCAGG` has an E-score of -0.325.
The E-score of `CTATTGTC` is reported as -0.0109.

Further values, each from its own experiment
With `PhoQ, residues 284 288 289 292 302 303 TLSLKA` the fold induction was 0.564 (PhoP, residues 12 14 15 18 19 LFHKL (Escherichia coli, UniProt P23836); Sort-seq, measured: YFP reporter; E. coli; PhoQ-PhoP variant library, with: 10 µM Mg2+; relative to: high Mg2+ state, higher = stronger signaling).
